Results pooled from the literature.
Every numbered part comes from another study and shows a few of its results, in no order.

Study 1
Target: Interferon regulatory factor 5, full length, phosphomimetic (IRF5, Homo sapiens, UniProt Q13568-2, residues 1-514, S451D/S453D/S456D/S462D)
Method: protein-binding microarray
Molecule type: double-stranded DNA, one strand shown
Medium: in vitro
Concentration: 940 nM top
Setting: 60-bp whole probe
With: salmon DNA 0.4 mg/ml
Baseline: random background probes
Direction: higher = stronger binding
Shared flanks, not repeated: GCCTAGCAC … GTCTTGATTCGCTTGACGCTGCTG
Strand | fitted relative affinity
GACGGAATGCTACTGCTGACGTGCTAG | -0.719 z-score
TTAGTTATCGACTATCGGTTAGTGCTA | 0.83 z-score
GCTAGTATGTTCCTTATTTAAGTGCTA | 0.647 z-score
TTAGATCTCAGACTGGGTTAGTGCTAG | -0.267 z-score
TCATAGGTTTCACTTTCCACTGTGCTA | 6.1 z-score
TCAGCTCTTATATACCTGACTGTGCTA | 0.63 z-score
TCATGTATGGGCATTTTTACTGTGCTA | -0.245 z-score

Study 2
Target: Sal-like protein 4, full length isoform B (SALL4, Homo sapiens, UniProt Q9UJQ4-2, residues 1-616)
Method: universal PBM
Molecule type: double-stranded DNA, one strand shown
Medium: in vitro
Concentration: not given
Setting: 8-mer, flanks averaged, mean of replicates
Direction: higher = stronger binding
Strand | E-score
GCTAGCAA | -0.00374
TCACCTCA | -0.0824
CCAAGGCA | -0.18
CTCCGGTC | -0.366
ACCGCCCT | -0.106
CCCCTAAA | -0.0171

Study 3
Target: Histone acetyltransferase KAT6A, winged helix 2, GST fusion (KAT6A, Homo sapiens, UniProt Q92794, residues 85-181)
Method: protein binding microarray
Molecule type: double-stranded DNA, one strand shown
Medium: in vitro
Concentration: not given
Setting: 8-mer, flanks averaged, mean of 2 arrays, mostly near background
Baseline: not given
Direction: higher = stronger binding
Target sequence (chain): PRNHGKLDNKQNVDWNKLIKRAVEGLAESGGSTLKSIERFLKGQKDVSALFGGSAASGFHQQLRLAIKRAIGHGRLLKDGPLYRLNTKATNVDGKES
Strand | E-score
CTCCAGGC | 0.103
CTGGCCAG | -0.0847
ATGTGACG | -0.0794
ACCTATTC | -0.169
CCCGAAGG | 0.197
AACCGCTT | -0.00217
ACTACCTA | -0.255

Other studies, line by line
Substance | target | test | system | setting | scale | quantity | result
PhoQ, residues 284 288 289 292 302 303 TGYLSA | PhoP, residues 12 14 15 18 19 SEGLL (Escherichia coli, UniProt P23836) | Sort-seq, item: YFP reporter | E. coli | PhoQ-PhoP variant library, with: 10 µM Mg2+ | baseline: high Mg2+ state, higher = stronger signaling | fold induction | 17.9

Excerpt of the above (study 3):
Strand | E-score
CTCCAGGC | 0.103
